# Measurements pooled from the literature.
# Protocols differ between the studies behind these lines. ± gives the spread as reported.
# GBA2: Beta-glucosidase (GBA2, Homo sapiens, UniProt Q9HCG7)
# UniProt Q9HCG7, sequence (whole entry, looked up): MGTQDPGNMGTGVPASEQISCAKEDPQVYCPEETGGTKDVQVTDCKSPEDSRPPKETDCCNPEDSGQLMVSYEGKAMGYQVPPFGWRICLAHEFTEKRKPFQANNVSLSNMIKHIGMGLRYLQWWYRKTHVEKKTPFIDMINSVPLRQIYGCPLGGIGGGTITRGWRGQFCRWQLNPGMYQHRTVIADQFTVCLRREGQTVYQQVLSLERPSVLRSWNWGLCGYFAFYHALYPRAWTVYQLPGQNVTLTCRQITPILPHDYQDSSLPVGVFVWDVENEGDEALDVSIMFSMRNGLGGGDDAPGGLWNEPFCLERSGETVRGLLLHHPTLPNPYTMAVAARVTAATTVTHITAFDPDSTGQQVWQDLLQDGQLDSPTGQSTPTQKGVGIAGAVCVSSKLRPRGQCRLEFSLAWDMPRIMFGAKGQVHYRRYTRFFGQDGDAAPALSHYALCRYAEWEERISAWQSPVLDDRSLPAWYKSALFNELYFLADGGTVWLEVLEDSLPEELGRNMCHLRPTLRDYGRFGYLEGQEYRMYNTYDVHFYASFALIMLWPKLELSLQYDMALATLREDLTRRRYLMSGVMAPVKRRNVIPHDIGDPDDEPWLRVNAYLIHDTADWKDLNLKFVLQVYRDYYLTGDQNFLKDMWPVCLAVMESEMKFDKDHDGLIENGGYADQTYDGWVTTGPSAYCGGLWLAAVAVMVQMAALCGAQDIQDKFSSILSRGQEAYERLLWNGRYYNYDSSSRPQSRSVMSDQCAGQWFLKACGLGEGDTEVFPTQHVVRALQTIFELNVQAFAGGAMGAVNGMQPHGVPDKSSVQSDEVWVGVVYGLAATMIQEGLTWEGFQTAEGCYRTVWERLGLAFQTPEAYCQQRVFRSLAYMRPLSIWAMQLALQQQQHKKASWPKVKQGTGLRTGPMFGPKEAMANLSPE
SMILES,tested on,test,test system,setting,how to read,measurement,value
CCCCNCCO.O=C(O)C(Cl)Cl,Eclipta prostrata,,,"15 mg/mL, 21 days, post-emergence, greenhouse",,herbicidal inhibition,0%
CCOC(=O)/C=C/[C@H](C[C@@H]1CCNC1=O)NC(=O)[C@@H](CC(=O)[C@@H](NC(=O)c1cc(C)on1)C(C)C)Cc1ccc(F)cc1,Rhinovirus C,"viral replication, high-content imaging",RV-C15a-mGL,,,IC50,18 ± 8 nM
COC1C=COC2(C)Oc3c(C)c(O)c4c(c3C2=O)C2=NC3(CCN(CC(C)C)CC3)NC2=C(NC(=O)C(C)=CC=CC(C)C(O)C(C)C(O)C(C)C(OC(=O)Nc2cscn2)C1C)C4=O (stereo not drawn),Mycobacteroides abscessus,"intracellular growth, visual read","THP-1 derived macrophages, ATCC 19977",,,IC50,20 nM
Cc1cccc2c1N(C(=O)n1ccnn1)CC2,Arabidopsis thaliana,,wild type,"30 µM, seedlings",,hypocotyl length,9.76 mm
FC(F)(F)c1cccc(CNc2nc(NC3CCN(Cc4ccccc4)CC3)c3nc[nH]c3n2)c1,Cryptococcus neoformans,"RNA-seq, measured: CNAG_02375",wild type,"48 µg/mL, 3 h",relative to: untreated wild type,log2 fold change,0.486
CCCCCCCOCCCCCN1C[C@H](O)[C@@H](O)[C@H](O)[C@H]1CO,GBA2,"inhibitor, 4MU-β-D-glucopyranoside",HEK293T homogenates overexpressing GBA2,,relative to: GBA1 IC50 over GBA2 IC50,selectivity ratio,117
C=C(NC(=O)c1csc(-c2nc3c(cc2O)-c2nc(cs2)C(=O)NC(C(C)O)C(=O)NC(=C(C)OC)c2nc(cs2)C(=O)NC2c4nc(cs4)C(=O)NC(COC(=O)c4c5c6c(cccc6n4O)COC(=O)C(OC4CC(C)(O)C(N(C)C)C(C)O4)C2OC5)c2nc-3cs2)n1)C(N)=O (stereo not drawn),Streptococcus pneumoniae,,"ATCC 49619, immunocompromised mice, lung infection",bid dosing,,lung bacterial load at ED50,5.33 log CFU/g
CC(C)C[C@H](NC(=O)[C@H](Cc1ccc(O)cc1)NC(=O)[C@@H]1CCCN1C(=O)[C@H](CCCNC(=N)N)NC(=O)[C@@H]1CCCN1C(=O)[C@H](CCCCN)NC(=O)[C@H](CC(=O)O)NC(=O)[C@@H]1CCCN1C(=O)[C@H](CCCNC(=N)N)NC(=O)C1(N)CCCCC1)C(=O)N1CCC[C@H]1C(=O)N[C@@H](CCCNC(=N)N)C(=O)N1CCC[C@H]1C(=O)N[C@@H](CCCNC(=N)N)C(=O)N1CCC[C@H]1C(=O)N1CCC[C@H]1C(=O)N[C@@H](CCCNC(=N)N)C(=O)N1CCC[C@H]1C(=O)N[C@H](C(=O)N[C@@H](CCCNC(=N)N)C(=O)N[C@@H](CSc1c(F)c(F)c(SC[C@H](NC(=O)[C@H](CCCNC(=N)N)NC(=O)[C@@H](NC(=O)[C@@H]2CCCN2C(=O)[C@H](CCCNC(=N)N)NC(=O)[C@@H]2CCCN2C(=O)[C@@H]2CCCN2C(=O)[C@H](CCCNC(=N)N)NC(=O)[C@@H]2CCCN2C(=O)[C@H](CCCNC(=N)N)NC(=O)[C@@H]2CCCN2C(=O)[C@H](CC(C)C)NC(=O)[C@H](Cc2ccc(O)cc2)NC(=O)[C@@H]2CCCN2C(=O)[C@H](CCCNC(=N)N)NC(=O)[C@@H]2CCCN2C(=O)[C@H](CCCCN)NC(=O)[C@H](CC(=O)O)NC(=O)[C@@H]2CCCN2C(=O)[C@H](CCCNC(=N)N)NC(=O)C2(N)CCCCC2)C(C)C)C(=O)NN)c(F)c1F)C(=O)NN)C(C)C,Acinetobacter baumannii,"membrane disruption, propidium iodide uptake",19606,"90 min, 37 °C",,MDC,10.6 ± 0.5 µg/mL
OC[C@@H]1[C@@H](O)[C@H](O)[C@@H](O)CN1CCCCCOCCc1ccsc1,GBA2,"inhibitor, 4MU-β-D-glucopyranoside",HEK293T homogenates overexpressing GBA2,,relative to: GCS IC50 over GBA2 IC50,selectivity ratio,190
CC(O)CNCC(C)O.O=C(O)C(Cl)Cl (stereo not drawn),Amaranthus retroflexus,herbicidal activity,,"15 mg/mL, 21 days, pre-emergence greenhouse",,inhibition,0%
CNCc1ccc2c(c1)N(C(=O)OCc1c(F)c(F)c(F)c(F)c1F)[C@H](CNC(=N)N)[C@H]2NC(=O)C(=O)Nc1ccc(Cl)c(F)c1,HIV-1,viral infection,"TZM-bl, CRF02_AG 263-8 Env pseudovirus",,,IC50,320 nM
O=C1C(NCCc2cc(Br)c(O)c(Br)c2)=CC2=NCCc3c[nH]c1c32,Babesia divergens,"parasite growth, SYBR Green",,"60 h, blood stage",,IC50,6720 nM

# A few entries again:
SMILES,tested on,test,test system,setting,how to read,measurement,value
O=C1C(NCCc2cc(Br)c(O)c(Br)c2)=CC2=NCCc3c[nH]c1c32,Babesia divergens,"parasite growth, SYBR Green",,"60 h, blood stage",,IC50,6720 nM
CCCCNCCO.O=C(O)C(Cl)Cl,Eclipta prostrata,,,"15 mg/mL, 21 days, post-emergence, greenhouse",,herbicidal inhibition,0%
